Published values gathered from unrelated publications.
Every numbered part comes from another study and shows a few of its results, in no order.

Study 1
Target: Prothrombin, mature alpha-thrombin (F2, Homo sapiens, UniProt P00734)
Method: aptamer microarray, sandwich
Form: DNA with 2'F-ANA
Sample: in vitro
Tested at: 200 nM
Setting: whole 15-mer aptamer, many near background
Together with: Cy3 exosite-II aptamer, 400 nM
Direction: higher = stronger binding
`GGTTGGTGTGGTTGG (2'F-ANA at 2 3 7 8 9 10 11 13 15)`: “mean fluorescence intensity” 344 a.u.
`GGTTGGTGTGGTTGG (2'F-ANA at 3 4 6 7 8 9 10 11 12 14)` — result for “mean fluorescence intensity”: 156 a.u.
Under “mean fluorescence intensity”, `GGTTGGTGTGGTTGG (2'F-ANA at 1 3 6 8 9 10 11 13 14 15)` is recorded as 59.2 a.u.
`GGTTGGTGTGGTTGG (2'F-ANA at 1 4 6 9 10 11 14)`: “mean fluorescence intensity” 51.1 a.u.

Study 2
Target: Histone acetyltransferase KAT6A, winged helix 2, GST fusion (KAT6A, Homo sapiens, UniProt Q92794, residues 85-181)
Method: protein binding microarray
Form: double-stranded DNA, one strand shown
Sample: in vitro
Tested at: not given
Setting: 8-mer, flanks averaged, mean of 2 arrays, mostly near background
Baseline: not given
Direction: higher = stronger binding
Target sequence (chain): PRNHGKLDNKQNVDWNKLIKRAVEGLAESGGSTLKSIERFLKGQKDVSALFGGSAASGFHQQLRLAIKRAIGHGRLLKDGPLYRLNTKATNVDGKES
The E-score of `AGGCCGTC` is reported as -0.0127.
With `ACGGCACC` the E-score was -0.0961.
The E-score of `GTCAGAAC` is reported as 0.00435.
`GTCTCTCA` gave an E-score of -0.0802.

Study 3
Target: Interferon regulatory factor 3, full length, phosphomimetic (IRF3, Homo sapiens, UniProt Q14653, residues 1-427, S386D/S396D/S398D/S402D/T404D/S405D)
Method: protein-binding microarray
Form: double-stranded DNA, one strand shown
Sample: in vitro
Tested at: 2540 nM top
Setting: 60-bp whole probe
Together with: salmon DNA 0.4 mg/ml
Baseline: random background probes
Direction: higher = stronger binding
Shared flanks, not repeated: GCCTAGCACT … GTCTTGATTCGCTTGACGCTGCTG
Residues (chain): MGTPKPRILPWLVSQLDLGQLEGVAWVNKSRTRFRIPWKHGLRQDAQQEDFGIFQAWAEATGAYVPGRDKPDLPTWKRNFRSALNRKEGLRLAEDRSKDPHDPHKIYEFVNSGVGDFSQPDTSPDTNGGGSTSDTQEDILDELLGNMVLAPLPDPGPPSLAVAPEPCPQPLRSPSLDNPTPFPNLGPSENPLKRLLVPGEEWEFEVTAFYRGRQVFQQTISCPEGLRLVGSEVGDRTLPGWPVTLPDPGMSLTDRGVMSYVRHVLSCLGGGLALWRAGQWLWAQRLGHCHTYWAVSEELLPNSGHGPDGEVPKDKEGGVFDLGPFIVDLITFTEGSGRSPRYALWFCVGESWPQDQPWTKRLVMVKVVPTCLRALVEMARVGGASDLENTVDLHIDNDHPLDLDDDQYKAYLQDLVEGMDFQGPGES
`TTGGACTGGACACTGGGTTAGTGCTA`: “fitted relative affinity” -0.531 z-score.
`CATGCTTTCCTTTATGACTGTGCTAG`: “fitted relative affinity” 4.2 z-score.
Under “fitted relative affinity”, `TATATTTCAGTTTCGATTAGTGCTAG` is recorded as 5.34 z-score.
For `TAGATACCGGGACTGGATTAGTGCTA`, “fitted relative affinity” read -0.287 z-score.
`TAAGACTGGGGTATCGGTTAGTGCTA` — result for “fitted relative affinity”: 0.0434 z-score.

Further values, each from its own experiment
`PhoQ, residues 284 288 289 292 302 303 SACGEM` gave a fold induction of 13.1 (PhoP, residues 12 14 15 18 19 QWHVF (Escherichia coli, UniProt P23836); Sort-seq, measured: YFP reporter; E. coli; PhoQ-PhoP variant library, together with: 10 µM Mg2+; baseline: high Mg2+ state, higher = stronger signaling).

For quick reference, copied from above (further values, each from its own experiment):
`PhoQ, residues 284 288 289 292 302 303 SACGEM` gave a fold induction of 13.1 (PhoP, residues 12 14 15 18 19 QWHVF (Escherichia coli, UniProt P23836); Sort-seq, measured: YFP reporter; E. coli; PhoQ-PhoP variant library, together with: 10 µM Mg2+; baseline: high Mg2+ state, higher = stronger signaling).
